Assay results of several laboratories.
Lines come from different studies, so protocols differ. “And” joins repeats or separate records; there may be more than shown.

O=C(O)[C@H]1C[C@@H](O)CN1  z-scored log2 fold change (binding, equilibrium dialysis LC-MS; 5 µM, thermostabilized A2AR-BRIL construct; reference: no-protein control, direction not given): 0.167
O=C(NOC[C@H](O)CO)c1ccc(F)c(F)c1Nc1ccc(I)cc1F  viability (A549; 5 µM, 72 h): 34.5%
COc1ccc(-n2nc(C(C)=O)s/c2=N\N=C(/C)c2ccc(NC(=O)c3ccc(C)cc3)cc2)cc1  viability (MCF7; 0.078 µM): 85.5%
Nc1ncnc2c1ncn2[C@@H]1O[C@H](CO)[C@@H](O)[C@H]1O  viability (activated human T cells; 31.6 µM, 72 h; higher = more viable cells): 70.4 a.u. and 69.2 a.u. and 61.6 a.u.
Cn1cnc2c(F)c(Nc3ccc(Br)cc3F)c(C(=O)NOCCO)cc21  viability (A549; 0.1562 µM, 72 h): 82.6%
Cc1cccc(-c2[nH]c(CNc3ccccc3F)nc2-c2ccc3ncnn3c2)n1  viability (bone marrow CD138+ myeloma cells; XTT; 1.2 µM, phenol red-free RPMI): 16%
Cc1ccc(CNC(=O)Cn2cc(CSc3nc4ccccc4[nH]3)nn2)cc1  viability (Caco-2; MTT; 15.6 ppm): 40%
Cc1cc2nc3c(=O)[nH]c(=O)nc-3n(C[C@H](O)[C@H](O)[C@H](O)CO)c2cc1C  z-scored log2 fold change (binding, equilibrium dialysis LC-MS; 5 µM, thermostabilized A2AR-BRIL construct; reference: no-protein control, direction not given): -0.0567
C[C@H](NC(=O)C(=O)Nc1ccccc1C(C)(C)C)C(=O)N[C@@H](CC(=O)O)C(=O)COc1c(F)c(F)cc(F)c1F  viability (EA.hy926; apoptosis, CellTiter-Glo; concentration not given, added: TRAIL): 88.7% and 81.6%
CC(=O)c1nn(-c2ccc(Cl)cc2)/c(=N/N=C(\C)c2ccc(NC(=O)c3ccc(C)cc3)cc2)s1  viability (MCF7; 0.156 µM): 99.8%

Some of these lines once more:
C[C@H](NC(=O)C(=O)Nc1ccccc1C(C)(C)C)C(=O)N[C@@H](CC(=O)O)C(=O)COc1c(F)c(F)cc(F)c1F  viability (EA.hy926; apoptosis, CellTiter-Glo; concentration not given, added: TRAIL): 88.7% and 81.6%
